Experimental data gathered from unrelated publications.
A part holds a random share of what one study measured.

Block 1 — method: RNA Bind-n-Seq; form: RNA; sample: in vitro; concentration: 365 nM; reference: no-protein control; reading: higher = stronger binding; measurement: RBNS enrichment (R)
Target: RNA binding protein fox-1 homolog 2, RRM domain, GST-SBP tag (RBFOX2, Homo sapiens, UniProt O43251-10, residues 100-194)
Notes: natural RNA segment, single round, ends assumed
Shared flanks, not repeated: GGGAGUUCUACAGUCCGACGAUC … UGGAAUUCUCGGGUGCCAA
Target sequence (chain): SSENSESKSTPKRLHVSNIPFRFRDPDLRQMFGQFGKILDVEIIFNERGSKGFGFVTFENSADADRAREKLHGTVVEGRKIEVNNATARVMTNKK
GCCAGAUCCCUUGCACACAGCCCAGGGCGCACACCAUAUCACACGUGGCCUUGUCUAGACCCAGUCCUGAGCAGAGGAGCCUGGUGCCCUCCCAGUCCACAGGGUCUUCC: 0.426
GUGGUGGCAGCACAGUGGCAGGCCAGUGGUCAACUUAGGGCAUCUUUUCUCUGCCACGGCAGCGCAAUGCAAAGAGCAGACAUGGCCUCUUGCUUCUCUUCACAGCCAUA: 0.459
UUUGGAGGUCAAGCAUGUAGAAGGAAAAGGCUGUAGUCAUGAAUAUAGAACUGUCUGCUCUCCACCUUUUCCUCACUCUACAUUUAGUCAUCACACUGAACAGGAUGUGG: 1.54
AGCGUAAUGAUUAAGUUAUUCAUCACCAGGCUGUAAGCAAUAUCUUGAGUUUGUAGCUUAGAAUUGGGAGGAUACUUAACAUCUGGAAGACAAGUUCAUUUCAUCUUGAG: 0.396
AAUCAGCAUGCUUGUGCAUUACGUGGAGGUUGGAGGUGUCAUCUUUGUUGGGAUGACUGAUUGGGGCUAUCUGUUGUCAACAAGCGUCGUCUCCACCAUUGUGGAUGGAG: 3.46
GAGCAGCAAACGUGCUCACCUGGUGUCUUGGAGCCCAGCCUCCUGCUGAGGUUGGGGGCUCUGCCAUCCCUCCCCUGCUGGGUACCCUGUUACCAUUCAUUGUCUGUGCU: 0.564
AUUAGUUGAGAAAGCUCUGUUUCAUUUAGAGUUUUAAAGGAAUAUUCUCUCUUCAAUUAAGGAAUUUUCAUAAUGGAAUGGUUUAAAUUGAAGUGAUAAAGAAUAUUAUU: 0.573
AGGCUGGUCUCAAACUCCUGACCUCAAGUGAUCCACCUGCCUCGGCCUCCCAAAGUGCUGGGAUUACAGGUGUGAGCCACUGUGCCCAGCCCAAACUUUUAAGAUGACCC: 0.344
GCAGAGAGCAGAGAGCAGCCACUGUCACUAUCUUGCCAUCUCAUUCAGGGUCCUCUGAAAGUUACCCAGGGCUCUCAUCUACUUCCCUAGAGCUUGCAGUGUAAAGUGAC: 0.427
UAGGGUUUCGAUGUGCUAUGUUCUCAUCCUACAGUUGGUUUGGUAAUGAUCUGCAAGUCCCGGAGAGCAACAGCACAGCUCUGCCUGACGCUCUCAUUAAAAUCUAUGCA: 9.99
UUUCCUGUGAAGUUGGAGGGACGUUUGUAGUCAUGUGACACUAGCCGUCCUGCCCCUGCUGUCAGAGAUUUUUUUCUCCAGAGAGGUGCCUGUCCUGUGCUUGGAUAGUC: 0.425
GUACAUGACUAGCUCUCCCAGUGUCCAAGCGCGUGCCUUCCCCGAGCCACUGGGGCGCAGCAGCGCGCUGCCCCUCUGCCCCAGGGACACCGGGCGCGCAUAACCACCCC: 0.3

Block 2 — method: protein-binding microarray; form: double-stranded DNA, one strand shown; sample: in vitro; concentration: not given; reading: higher = stronger binding; measurement: E-score
Target: Protein C-ets-1 (ETS1, Homo sapiens, UniProt P14921, residues 1-441, Y397A, full length assumed)
Chain of UniProt P14921 (whole entry, unmodified, looked up): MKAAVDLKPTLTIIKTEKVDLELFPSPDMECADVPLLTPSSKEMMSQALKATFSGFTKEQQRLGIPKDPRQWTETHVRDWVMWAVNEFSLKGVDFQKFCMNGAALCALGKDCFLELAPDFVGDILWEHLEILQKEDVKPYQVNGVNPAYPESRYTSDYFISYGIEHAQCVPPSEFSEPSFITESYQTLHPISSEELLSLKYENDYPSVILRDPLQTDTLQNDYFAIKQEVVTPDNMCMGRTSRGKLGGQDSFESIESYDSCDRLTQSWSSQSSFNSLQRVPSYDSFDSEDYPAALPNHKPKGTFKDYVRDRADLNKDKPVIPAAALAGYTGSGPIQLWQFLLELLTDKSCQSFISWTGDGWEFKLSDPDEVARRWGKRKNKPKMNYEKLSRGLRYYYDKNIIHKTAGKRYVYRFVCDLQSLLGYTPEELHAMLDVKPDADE
Notes: k-mer, scored over probes, only values ≥0.25
CATTTCCC: 0.258
ATCCGCCA: 0.277
GTCAACGA: 0.284
CAACATGA: 0.32
ACTGACAA: 0.357
GCCCACCC: 0.299
GTGACAAC: 0.315
GTCGTACA: 0.298
CAGCAAAC: 0.331
CTTGACAA: 0.321
CTGTGACA: 0.301
ATGTTGTC: 0.256
TTGTCAAA: 0.325
AACGTTGT: 0.321
TTGCCAAA: 0.378
CCGACAAA: 0.404
TGACAAAA: 0.464
CCGACATA: 0.263
CGTTGTCA: 0.316
ATACAAAT: 0.277
TGTTGTAA: 0.309
GCGTTTCC: 0.262
CGTTGACA: 0.292
GGCAAAAA: 0.287
GTCGGATA: 0.327

Block 3 — method: RNA Bind-n-Seq; form: RNA; sample: in vitro; concentration: not given; notes: RNA with constant flanks, ends assumed; reference: input RNA pool; reading: higher = stronger binding; measurement: bound/input enrichment
Target: RING finger protein unkempt homolog, zinc fingers 1-6, GST-SBP tag (UNK, Homo sapiens, UniProt Q9C0B0, residues 30-357)
Shared flanks, not repeated: GGGAGUUCUACAGUCCGACGAUC … CAACAGAGGAUUGAGCAUCA
Target sequence (chain): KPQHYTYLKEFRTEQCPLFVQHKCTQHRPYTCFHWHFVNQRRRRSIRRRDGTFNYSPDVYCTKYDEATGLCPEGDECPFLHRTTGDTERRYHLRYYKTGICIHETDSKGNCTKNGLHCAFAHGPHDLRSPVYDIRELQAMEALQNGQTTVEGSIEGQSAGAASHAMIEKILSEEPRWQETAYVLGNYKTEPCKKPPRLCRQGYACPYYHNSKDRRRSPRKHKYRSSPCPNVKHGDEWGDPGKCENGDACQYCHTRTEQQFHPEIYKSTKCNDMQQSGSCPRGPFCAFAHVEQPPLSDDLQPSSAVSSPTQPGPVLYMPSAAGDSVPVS
AGUCCAUGUUAAGUUUCAUUUAAAAGAUGCAUUUAUAUUUUGUUCUGUAAUAUUCUACUGCCGGUGAAAUCUUCAAAAAUCAAGAGACUGGGUAGUUAAGAAUAUAUGAAUGACUAAUAU: 0.22 ratio
UCUCCUGAUCUAAUGAGCUUUAUGAUGGAGUUGAAGAUGCUUUUGGAAGUUGCCUUAAAGAACCGACAAGAGCUGUAUGCACUACCUCCUCCUCCCCAGUUCUACUCAAGCCUUAUUGAA: 0.0974 ratio
AAACUCUCUAGCAAAACCACUGCUAAGUUAUCCACUAGUGCUAAAAGAAUUCAGAAGGAGCCCGCUGAAAUAACCCUUGAUCCUCCUCCUAAUUGCAGUGCUGGGCCUAAAGGAGAUAAC: 1.22 ratio
UCCACGGAUGUUUAAUAUCAUCUCAGAUUCCCCAUCUCCUAUUGCUGCAAGAACACUGACAUCCGUGGCUAAAUCUGUGCAGAAUUUAGCAAAUCUUGUGGAAUUUGGAGCUAAGGAGCC: 0.0717 ratio
UCUUCUGUUAUCCCUGGGGGUGCUCAGGUUCACUUGAUUGUCUGUAUUUCUGUGUGGUUGCCGCAAGGACUCAGCCUCAUGUAGCACGAAUAGGGGUGUGGUUCAUGGCGUGUUGACCCA: 0.234 ratio
AGAGCAAUGGCUGCAGCAGCAGCUUCUCACCUGAACCUGGAUGCCCUCCGGGAAGUGCCCGAAUGCCCCAUCUGCAUGGAGUCCUUCACAGAAGAGCAGCUGCGUCCCAAGCUUCUGCAC: 0.0693 ratio
GAAGGUUCCAAGACCUGGGAUCGAUUCCAGAUGAGGAUCCACAAGCGACUCAUUGAUUUACACCGUCCUUCUGAGAUUGUUAAGCAGAUUACUUCCAUCAGUAUUGAGCCGGGAGUUGAG: 0.169 ratio
AAACUGCAUUCCAGCGCCAGUCCCAGUGCUCAGCAGUACGAUGCUUCCAGUGCAGUACUUUCCGACAACCUCCCUGGAGUCCGGUGGCUCACACUUCCACUGGAAAUCAAGAUGGAAUUA: 0.0958 ratio
ACUAAGACUGAAUAUGAACCUGAUCGCAAAAAAGGAAAAGCACGUCCUCCCAAGACCGCCGAGUUCACCGUCAGCAUCACCGAGGGUGUCACCGAGAGGUUUAAGGUCUCCGUGCUGGUC: 0.0616 ratio
UUUCGGAACUAUAUCAUGGACUUCCAAGUUGGGAAGGAGUUUGAGGAAGAUCUGACAGGCACCGACGACCGCAAGUGCAUGACCACUGUGAGCUGGGAUGGUGACAAACUCCAGUGUGUG: 0.131 ratio
GGCUAUCUGGUAUCUGUAGAUGGCUACAUGAACAUGCAGCUUGCAAAUACAGAAGAAUACACCGAUGGAGCUUUGUCUGGACAUCUGGGUGAAGUUUUAAUAAGGUGUAAUAAUGUCCUU: 0.187 ratio

Block 4 — method: protein-binding microarray; form: double-stranded DNA, one strand shown; sample: in vitro; concentration: 250 nM; notes: 60-bp whole probe; with: salmon DNA 0.4 mg/ml; reference: random background probes; reading: higher = stronger binding; measurement: log fluorescence; shared flanks, not repeated: GCCTAGCAC … GTCTTGATTCGCTTGACGCTGCTG
Target: Interferon regulatory factor 5, full length, phosphomimetic (IRF5, Homo sapiens, UniProt Q13568-2, residues 1-514, K96S/S451D/S453D/S456D/S462D)
TCATGCTTCTGTATGGGACTGTGCTAG: -0.0647 z-score
TTAGAACTGGGGTATCGATGAGTGCTA: 1.15 z-score
TTGTAGATGCCTTTCTCTTGGTGCTAG: 0.36 z-score
GACGGGATCCTACTGCTGACGTGCTAG: -0.801 z-score
TTAGGTTCTCTTTTCCTTTAGTGCTAG: 0.624 z-score
GACGGACTGGGGTTTCGGCACGTGCTA: 1.39 z-score
TCTCTTCTGCTTCCTCAGGACGTGCTA: 0.116 z-score
TTAGAACTGACTATCGATTAGTGCTAG: 7.36 z-score
TTAGGTTCCGACTATCGGTTAGTGCTA: 6.29 z-score
TTGGGTATCGACTATCGGTTAGTGCTA: 7.87 z-score
GACGGTTTCGGGACTGAGGACGTGCTA: 4.95 z-score
TGCTGTGTGCATCTATCTTAGTGCTAG: -0.411 z-score
TCAATTCTTTTTATGCTACTGTGCTAG: 0.813 z-score
TCATTTCTGAATGCTCCCACTGTGCTA: 0.805 z-score
GACGGTATGGACTTTCGGGACGTGCTA: 4.09 z-score
GACGGACTGGGGATCGGGACGTGCTAG: -0.505 z-score
GACGATCTCAGAATGGAGACGTGCTAG: -0.247 z-score
TTAGGTATCGATACTGGGTTAGTGCTA: 8.26 z-score
GACGGTATCGACTATCGGGATGTGCTA: 4.03 z-score
TTGGGACTGCTTCTCCTTTAGTGCTAG: -0.586 z-score

Block 5 — method: universal PBM; form: double-stranded DNA, one strand shown; sample: in vitro; concentration: 600 nM; reading: higher = stronger binding; measurement: E-score
Target: Sal-like protein 4, full length isoform A (SALL4, Homo sapiens, UniProt Q9UJQ4, residues 1-1053)
Chain of UniProt Q9UJQ4 (whole entry, looked up): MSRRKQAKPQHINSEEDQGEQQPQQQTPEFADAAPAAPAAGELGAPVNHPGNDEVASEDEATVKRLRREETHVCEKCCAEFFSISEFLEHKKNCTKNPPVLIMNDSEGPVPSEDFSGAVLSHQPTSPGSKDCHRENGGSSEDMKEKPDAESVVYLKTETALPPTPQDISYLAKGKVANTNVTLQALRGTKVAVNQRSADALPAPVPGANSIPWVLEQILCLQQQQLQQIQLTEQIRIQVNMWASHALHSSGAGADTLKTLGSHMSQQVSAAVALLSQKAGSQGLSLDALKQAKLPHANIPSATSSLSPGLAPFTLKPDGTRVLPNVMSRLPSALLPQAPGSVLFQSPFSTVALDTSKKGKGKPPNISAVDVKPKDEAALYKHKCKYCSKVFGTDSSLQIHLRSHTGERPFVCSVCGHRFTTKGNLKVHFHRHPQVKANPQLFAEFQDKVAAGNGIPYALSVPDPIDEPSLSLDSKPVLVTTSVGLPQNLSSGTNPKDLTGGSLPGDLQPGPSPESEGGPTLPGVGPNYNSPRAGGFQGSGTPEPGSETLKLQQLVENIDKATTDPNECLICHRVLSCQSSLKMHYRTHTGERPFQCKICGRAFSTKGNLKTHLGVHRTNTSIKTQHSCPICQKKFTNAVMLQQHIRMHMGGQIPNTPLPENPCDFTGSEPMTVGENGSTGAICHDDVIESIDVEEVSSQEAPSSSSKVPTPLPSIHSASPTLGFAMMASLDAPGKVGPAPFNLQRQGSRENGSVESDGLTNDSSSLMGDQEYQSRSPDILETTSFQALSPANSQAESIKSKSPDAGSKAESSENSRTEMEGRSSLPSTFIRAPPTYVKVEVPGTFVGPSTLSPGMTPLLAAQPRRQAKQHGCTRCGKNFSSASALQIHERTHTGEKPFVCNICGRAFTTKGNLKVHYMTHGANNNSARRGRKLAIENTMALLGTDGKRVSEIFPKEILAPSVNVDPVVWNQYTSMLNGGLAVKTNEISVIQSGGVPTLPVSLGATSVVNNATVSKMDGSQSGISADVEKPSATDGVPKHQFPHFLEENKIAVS
Notes: 8-mer, flanks averaged, mean of replicates
GGGTTCAC: -0.228
GCATTTCC: 0.052
ACTTTTAA: 0.234
ACGGGAAG: 0.0615
TCTCTCCA: -0.118
CAAGACGG: -0.182
AATGGCCC: -0.261
CTGCCGTC: -0.31
CGGTCACA: -0.155
ACTCGAAT: 0.0827
CCAGCACG: -0.246
CAATGCCA: -0.0536
ATAAACTG: 0.271
GGAGAGAC: -0.00996
CGTAAGAA: -0.00929
GAGTGCAC: -0.142
ACTACAGT: 0.0266
CCATTGAG: 0.138
CATTGCTA: 0.178
ATGCATCG: 0.0304
AAACGGCT: -0.1
TGGCAGAA: -0.0749
ACTGGTCA: -0.0719
GGCGCGGA: -0.383
AATGAAGT: 0.21

Some of these lines once more (block 5):
TCTCTCCA: -0.118
CAAGACGG: -0.182
AATGGCCC: -0.261
CTGCCGTC: -0.31
CGGTCACA: -0.155
ACTCGAAT: 0.0827
CCAGCACG: -0.246
CAATGCCA: -0.0536
ATAAACTG: 0.271
GGAGAGAC: -0.00996
CGTAAGAA: -0.00929
GAGTGCAC: -0.142
ACTACAGT: 0.0266
